{"data": "Measured values of several laboratories", "organism": "HIV-1", "note": "Protocols differ between the studies behind these lines. Numbers after ± are the reported error."}
{"Structure (SMILES)": "O=C1c2c(ccc(O)c2O)CN1Cc1ccc(F)c(Cl)c1", "read-out": "viral replication", "strain": "integrase Y143R mutant, VSV-G pseudotyped", "EC50 [nM]": "370 ± 80"}
{"Structure (SMILES)": "CC(C)C[C@@H]1NC(=O)[C@H](CCCCN)NC(=O)[C@H](CC(C)C)NC(=O)[C@@](C)(NC(=O)[C@H](Cc2ccccc2)NC(=O)[C@H](Cc2ccc(O)cc2)NC(=O)[C@H](C)NC(=O)[C@@H](N)[C@@H](C)O)CCC=CCC[C@@](C)(C(=O)NCC(=O)N[C@@H](CCCNC(=N)N)C(=O)N[C@@H](Cc2c[nH]c3ccccc23)C(N)=O)NC1=O", "EC50 [nM]": "> 40000"}
{"Structure (SMILES)": "COc1cc2nc(NC3CCN(Cc4ccc(C(N)=O)cc4)CC3)nc(Oc3c(C)cc(C#N)cc3C)c2cc1OC", "read-out": "viral replication", "cells": "TZM-bl", "strain": "GH9 K101P/K103N/V108I", "EC50 [nM]": "22.1 ± 6.88"}
{"Structure (SMILES)": "CC(C)C[C@@H]1NC(=O)[C@H](CCCCN)NC(=O)[C@H](CC(C)C)NC(=O)[C@@](C)(NC(=O)[C@H](Cc2ccccc2)NC(=O)[C@H](Cc2ccc(O)cc2)NC(=O)[C@H](C)NC(=O)[C@@H](NC(=O)c2ccc3c(c2)C(=O)OC32c3ccc(O)cc3Oc3cc(O)ccc32)[C@@H](C)O)CCCC=CCCC[C@@](C)(C(=O)NCC(=O)N[C@@H](CCCNC(=N)N)C(=O)N[C@@H](Cc2c[nH]c3ccccc23)C(N)=O)NC1=O", "EC50 [nM]": 11000}
{"Structure (SMILES)": "Cc1cccc(-c2cc(C#N)cc(Oc3c(C(F)(F)F)ccn(Cc4n[nH]c(=O)n4C)c3=O)c2)c1", "read-out": "viral cytopathicity", "cells": "MT4", "strain": "wild type", "EC50 [nM]": "13 ± 3.4"}
{"Structure (SMILES)": "O=C1c2ccc(O)c(O)c2C(=O)N1Cc1ccc(F)c(Cl)c1", "read-out": "viral replication", "strain": "integrase Y143R mutant, VSV-G pseudotyped", "EC50 [nM]": "1800 ± 200"}
{"Structure (SMILES)": "O=C(NCc1ccc(F)cc1F)c1c(O)c2cccnc2n(O)c1=O", "read-out": "viral infectivity", "strain": "integrase G118R", "EC50 [nM]": "107 ± 8"}
{"Structure (SMILES)": "CN(C)S(=O)(=O)c1cc(O)c(O)c2c1CN(Cc1ccc(F)c(Cl)c1)C2=O", "read-out": "viral replication", "strain": "integrase Y143R mutant, VSV-G pseudotyped", "EC50 [nM]": "20 ± 6"}
{"Structure (SMILES)": "Cc1cn(C2CC(N(C)C)C(CO)O2)c(=O)[nH]c1=O (stereo not drawn)", "read-out": "viral cytopathic effect", "technique": "MTT", "cells": "MT-4", "strain": "IIIB", "EC50 [nM]": "> 460"}
{"note": "A few entries again:"}
{"Structure (SMILES)": "COc1cc2nc(NC3CCN(Cc4ccc(C(N)=O)cc4)CC3)nc(Oc3c(C)cc(C#N)cc3C)c2cc1OC", "read-out": "viral replication", "cells": "TZM-bl", "strain": "GH9 K101P/K103N/V108I", "EC50 [nM]": "22.1 ± 6.88"}
